Measurements pooled from the literature.
Parts stem from different laboratories: compare values within a part only.

Block 1 — technique: protein-binding microarray; molecule type: double-stranded DNA, one strand shown; matrix: in vitro; tested at: 2200 nM top; setting: 60-bp whole probe; together with: salmon DNA 0.4 mg/ml; relative to: random background probes; direction: higher = stronger binding; shared flanks, not repeated: GCCTAGCAC … GTCTTGATTCGCTTGACGCTGCTG
Target: Interferon regulatory factor 7, full length, phosphomimetic (IRF7, Homo sapiens, UniProt Q92985, residues 1-503, S471D/S472D/S475D/S476D/S477D/S483D/S484D/S487D)
Target sequence (chain): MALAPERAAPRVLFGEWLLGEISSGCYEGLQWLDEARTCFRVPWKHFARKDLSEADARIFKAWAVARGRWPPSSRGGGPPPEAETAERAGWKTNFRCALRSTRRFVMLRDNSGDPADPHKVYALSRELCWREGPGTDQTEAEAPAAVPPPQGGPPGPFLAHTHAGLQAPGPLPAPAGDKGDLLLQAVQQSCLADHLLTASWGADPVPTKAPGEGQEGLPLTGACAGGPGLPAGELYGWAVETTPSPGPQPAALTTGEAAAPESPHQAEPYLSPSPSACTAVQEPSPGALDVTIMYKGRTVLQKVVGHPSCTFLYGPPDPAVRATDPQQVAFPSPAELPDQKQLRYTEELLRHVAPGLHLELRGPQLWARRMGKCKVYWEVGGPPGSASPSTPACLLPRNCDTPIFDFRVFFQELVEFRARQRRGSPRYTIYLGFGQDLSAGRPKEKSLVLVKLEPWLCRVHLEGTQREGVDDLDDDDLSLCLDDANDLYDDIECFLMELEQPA
Oligonucleotide	fitted relative affinity
GACGATATCAGTCTCGTGACGTGCTAG	0.342 z-score
TTTGGTATCGGACTGGGTTAGTGCTAG	0.806 z-score
TCACATATGCTTTTTAGACTGTGCTAG	1.25 z-score
TCACCTTTTAATTTTTAACTGTGCTAG	1.18 z-score
TTAGAGTTCGGGACTGGATTAGTGCTA	-0.589 z-score
GACGGTTTCCTAATCCTGACGTGCTAG	2.22 z-score

Block 2 — technique: RNA Bind-n-Seq; molecule type: RNA; matrix: in vitro; tested at: 365 nM; relative to: no-protein control; direction: higher = stronger binding
Target: RNA binding protein fox-1 homolog 2, RRM domain, GST-SBP tag (RBFOX2, Homo sapiens, UniProt O43251-10, residues 100-194)
Setting: natural RNA segment, single round, ends assumed
Shared flanks, not repeated: GGGAGUUCUACAGUCCGACGAUC … UGGAAUUCUCGGGUGCCAA
Oligonucleotide	RBNS enrichment (R)
UUGGAUGUGAAUGUCCUUGCAGGCCGGUUAGUCUCCAGUUUCCACAGAGACCACCUACCCACCACCUUCCCAGGUCACCUGCCUGGUCCCUGAAAGAAAGCAUUUGUGUG	0.402
CUAAACAAAGCACACUUUUCAGGACUUGCUGGGUCACCUUUUCCUGAGGAAUGAUAGCGAAGAGUGUUUUUUUCAUAAACUGGAUCAAACUCCGUCUUCAUGUUUACCAU	0.727
UGGAUCAUGUGAUCAUUGUGAACACCUCGUGAGCUUUAAAAUAAAGUCCACCCUGUGGUGUCAUUUCAAGCUGUUGGCUUUGUCUCCGAUCGGCAUUGGGAAAAGGAGUC	0.431
UAACAAAUGUCAUCAUGAUUAAGGAAAUGUCUGGCACUUUAAUGGCAAAUUAAUUGAGAAUGUAUGAAAGUCAUGAAUGUACAAGCCAAAUAAAGCUCUUUAUUAACCCU	1.2
UCCGUAUUGGAGCCCUCCCUGCUUCCCCUUCUUUCUUUCCUCUUUCCCCAGGCCGCCACUGCCCUUGCCCCUUUCAUCUCCCAGCAGCCCUCAGGAGCGUCAGGAUCAUU	1.49

Block 3 — technique: protein-binding microarray; molecule type: double-stranded DNA, one strand shown; matrix: in vitro; tested at: not given; direction: higher = stronger binding
Target: Protein C-ets-1 (ETS1, Homo sapiens, UniProt P14921, residues 1-441, Y397A, full length assumed)
Setting: k-mer, scored over probes, only values ≥0.25
Residues (chain): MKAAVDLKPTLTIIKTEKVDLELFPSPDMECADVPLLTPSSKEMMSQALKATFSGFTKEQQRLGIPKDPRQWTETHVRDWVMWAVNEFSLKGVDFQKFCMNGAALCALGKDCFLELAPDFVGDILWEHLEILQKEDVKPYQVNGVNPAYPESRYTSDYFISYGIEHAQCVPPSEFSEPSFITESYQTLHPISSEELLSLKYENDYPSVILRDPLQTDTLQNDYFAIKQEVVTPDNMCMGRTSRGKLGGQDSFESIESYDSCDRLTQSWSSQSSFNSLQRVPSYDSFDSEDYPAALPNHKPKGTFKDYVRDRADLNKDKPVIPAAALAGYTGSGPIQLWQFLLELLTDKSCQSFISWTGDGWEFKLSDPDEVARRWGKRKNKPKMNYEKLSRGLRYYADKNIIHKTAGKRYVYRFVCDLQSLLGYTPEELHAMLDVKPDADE
Oligonucleotide	E-score
CGTTTGCA	0.273
GATTTGCA	0.266
GAATGACA	0.26
GTTACAAA	0.305
CGTCGCCA	0.283

Mixed results
Substance	target	test	system	setting	how to read	endpoint	result
PhoQ, residues 284 288 289 292 302 303 ASVMEA	PhoP, residues 12 14 15 18 19 NYFTV (Escherichia coli, UniProt P23836)	Sort-seq, measured: YFP reporter	E. coli	PhoQ-PhoP variant library, together with: 10 µM Mg2+	relative to: high Mg2+ state, higher = stronger signaling	fold induction	1.33

Excerpt of the above (block 1):
Oligonucleotide	fitted relative affinity
TTAGAGTTCGGGACTGGATTAGTGCTA	-0.589 z-score
